Results from different studies.
A part holds a random share of what one study measured.

Set 1
Target: Interferon regulatory factor 7, full length, phosphomimetic (IRF7, Homo sapiens, UniProt Q92985, residues 1-503, S471D/S472D/S475D/S476D/S477D/S483D/S484D/S487D)
UniProt Q92985, sequence (whole entry, unmodified, looked up): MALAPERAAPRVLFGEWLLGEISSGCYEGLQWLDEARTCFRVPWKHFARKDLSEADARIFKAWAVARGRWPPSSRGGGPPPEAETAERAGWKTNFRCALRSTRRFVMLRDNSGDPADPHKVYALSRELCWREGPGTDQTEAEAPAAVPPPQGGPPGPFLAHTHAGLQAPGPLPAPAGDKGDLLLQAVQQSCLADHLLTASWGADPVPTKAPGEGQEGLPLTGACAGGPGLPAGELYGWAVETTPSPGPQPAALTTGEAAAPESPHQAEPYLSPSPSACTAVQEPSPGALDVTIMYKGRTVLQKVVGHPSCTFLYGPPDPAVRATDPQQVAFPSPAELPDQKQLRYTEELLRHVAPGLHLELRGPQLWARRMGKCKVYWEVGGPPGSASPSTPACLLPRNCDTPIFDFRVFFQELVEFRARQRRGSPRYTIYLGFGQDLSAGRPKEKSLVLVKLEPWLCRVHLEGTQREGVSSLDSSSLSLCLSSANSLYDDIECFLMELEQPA
Technique: protein-binding microarray
Molecule type: double-stranded DNA, one strand shown
Sample: in vitro
Tested at: 2200 nM top
Setting: 60-bp whole probe
Together with: salmon DNA 0.4 mg/ml
Reference: random background probes
Direction: higher = stronger binding
All sequences stand within: GCCTAGCAC … GTCTTGATTCGCTTGACGCTGCTG
Oligonucleotide | fitted relative affinity [z-score]
AGTGCTATACCACTCTTGCTGTGCTAG | 1.05
GGCGGTCTCCTTTTCCTGACGTGCTAG | 0.748
GACGATTTCGGGACCGGAGACGTGCTA | 1.35
GATGATTTCGGGTTTCGAGACGTGCTA | 5.65
TCTGTTTCCTCTTTCTTTGCGTGCTAG | 5.26
GACGATATTAGACTGGAGACGTGCTAG | -0.0894
AGGAAAGTGTTTCTCAACCAGTGCTAG | 0.106
GACGGTACCGACTATCGGGACGTGCTA | -0.581
TTAGAACTGAGACTCGATTAGTGCTAG | -0.333
TTAGGACTGGCCACTGGGTTAGTGCTA | -1.1
GAATGTAACTCCTATCCAAGTGTGCTA | 0.892
TCAGTTTCCAGTATATTACTGTGCTAG | 2.99
GACGGTTTCCTTATCCTGACGTGCTAG | 3.02
GACGGACAGGGGTTTCGGGACGTGCTA | 0.574
GAGGATATCAGTATCGAGACGTGCTAG | 0.0478
AAACCATCCTGTATGGATGTGTGCTAG | 0.464
TTAGATCTCAGTTTCAATTAGTGCTAG | 0.77
GACGGTTTCGGGTTCGGGACGTGCTAG | 9.77
GGCTGTTTGGTTCTGATCCTGTGCTAG | 0.542
TGCTCTTTCTACATAGATGTGTGCTAG | 1.89
TTAGGAGTGCTTCTCCTTTAGTGCTAG | 0.32
TTAGGTTTCCTTTTTCTTTAGTGCTAG | 3.87
TTAGGTTCCCTTTTCCTTTTGTGCTAG | 4.68
GACGGTATCGACTATCAGGACGTGCTA | -0.0922
GACGGACTGCTAATGCTGACGTGCTAG | -0.32

Set 2
Target: Histone acetyltransferase KAT6A, winged helix 2, GST fusion (KAT6A, Homo sapiens, UniProt Q92794, residues 85-181)
Technique: protein binding microarray
Molecule type: double-stranded DNA, one strand shown
Sample: in vitro
Tested at: not given
Setting: 8-mer, flanks averaged, mean of 2 arrays, mostly near background
Reference: not given
Direction: higher = stronger binding
Construct (chain): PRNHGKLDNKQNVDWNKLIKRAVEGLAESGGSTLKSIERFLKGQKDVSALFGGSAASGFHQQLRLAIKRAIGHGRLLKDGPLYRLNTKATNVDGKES
Oligonucleotide | E-score
CTAGGGGA | -0.169
AGTTCGTC | 0.169
CATCGTCC | 0.0196
AACGCACG | 0.135
AGTAGATA | 0.0655
GCACGAGA | 0.0492
ATACTGGG | -0.106
ACGTGGGC | 0.00536
AGTAATGA | 0.00936
GAGCTACC | -0.0484
GCTAAGCC | -0.0315
CAGCATTA | -0.0444
CCACATCA | -0.00882
ACCAATCC | -0.0981
CGCCGACA | -0.017
CTAATAGA | -0.00292
CCCCCGGG | 0.154
CTCGAATA | -0.148
AATCTCTA | -0.151

Set 3
Target: Sal-like protein 4, full length isoform B (SALL4, Homo sapiens, UniProt Q9UJQ4-2, residues 1-616)
Technique: universal PBM
Molecule type: double-stranded DNA, one strand shown
Sample: in vitro
Tested at: not given
Setting: 8-mer, flanks averaged, mean of replicates
Direction: higher = stronger binding
Oligonucleotide | E-score
GTTCCCGA | -0.171
ACGACATG | 0.00988
TTGTAAAA | 0.199
TGTTGTAA | 0.21
TACCGAGA | -0.0484
GAAGGCAA | 0.0697
AAAGGATC | 0.0229
GGTTTGAA | 0.0381
GACGAGCC | -0.297
TATGTCCA | 0.00099
ACAATGAA | 0.224
GTTCCTTA | -0.0429
CGAATCAC | -0.105
AAGGTACG | 0.0912
GACCTTGA | 0.112
AAATTTCA | 0.213
CGCGTGTA | -0.0578
ACGGCATC | -0.117
ATGCTGGA | -0.115
AAACTAGA | 0.154
ACGTGTGG | 0.00798
AGTATAAG | 0.275
AGATCGAT | -0.00663
GAAAGACA | 0.11
GCGTCACA | -0.089

Set 4
Target: Prothrombin, mature alpha-thrombin (F2, Homo sapiens, UniProt P00734)
Technique: aptamer microarray, sandwich
Molecule type: DNA with 2'F-ANA
Sample: in vitro
Tested at: 200 nM
Setting: whole 15-mer aptamer, many near background
Together with: Cy3 exosite-II aptamer, 400 nM
Direction: higher = stronger binding
Oligonucleotide: GGTTGGTGTGGTTGG
Modification | mean fluorescence intensity
2'F-ANA at 7 9 10 13 15 | 189 a.u.
2'F-ANA at 4 6 11 12 13 | 318 a.u.
2'F-ANA at 2 5 6 8 10 15 | 46.6 a.u.
2'F-ANA at 1 3 5 6 11 13 | 51.5 a.u.
2'F-ANA at 2 3 4 6 7 9 12 13 14 | 227 a.u.
2'F-ANA at 1 2 3 4 6 7 9 10 12 | 121 a.u.
2'F-ANA at 2 8 11 12 13 | 603 a.u.
2'F-ANA at 2 3 4 7 10 12 13 14 15 | 178 a.u.
2'F-ANA at 4 8 10 11 12 13 15 | 79.1 a.u.
2'F-ANA at 1 2 3 5 9 10 11 12 15 | 52.3 a.u.
2'F-ANA at 6 8 9 10 12 13 | 173 a.u.
2'F-ANA at 1 4 15 | 159 a.u.
2'F-ANA at 2 3 4 5 8 10 12 13 14 15 | 201 a.u.
2'F-ANA at 4 5 8 9 12 13 14 15 | 44.8 a.u.
2'F-ANA at 1 3 4 5 6 9 10 11 12 13 | 78.8 a.u.
2'F-ANA at 1 6 10 11 12 14 15 | 46.7 a.u.
2'F-ANA at 1 4 10 11 12 13 14 15 | 76.1 a.u.
2'F-ANA at 2 4 6 8 10 13 14 15 | 61.8 a.u.
2'F-ANA at 2 3 4 7 8 10 15 | 303 a.u.
2'F-ANA at 1 2 6 7 10 12 14 15 | 52.8 a.u.
2'F-ANA at 1 3 4 5 6 13 14 15 | 44.7 a.u.
2'F-ANA at 3 4 5 7 9 11 12 13 14 | 51.8 a.u.
2'F-ANA at 1 2 3 7 9 10 12 14 15 | 48.8 a.u.

Set 5
Target: RNA binding protein fox-1 homolog 2, RRM domain, GST-SBP tag (RBFOX2, Homo sapiens, UniProt O43251-10, residues 100-194)
Technique: RNA Bind-n-Seq
Molecule type: RNA
Sample: in vitro
Tested at: 365 nM
Setting: natural RNA segment, single round, ends assumed
Reference: no-protein control
Direction: higher = stronger binding
All sequences stand within: GGGAGUUCUACAGUCCGACGAUC … UGGAAUUCUCGGGUGCCAA
Residues (chain): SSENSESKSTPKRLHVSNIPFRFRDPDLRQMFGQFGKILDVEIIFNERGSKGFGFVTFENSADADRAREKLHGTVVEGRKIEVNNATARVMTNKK
Oligonucleotide | RBNS enrichment (R)
GAUUCUUUGACUAGUGAAAAUCUCAUAAAAUUUAAAUACGUGUGAGUAAAACACAUGCCUGAACACACCAGGUCCAUUUGCUUAUUAUUGUCUGUGGUUGAGUUUACAUU | 0.981
UGUGUUAAAUAAAUGUGUAAAGUAACCACCAAAUGUUAUUAGAAUUUUUCUUCUAGCAUUUAUAAUUUUUUCAACUCCUAUUGUGUUUCUUUGUGUGUGAUAUUUUAAUC | 0.895
UUCCCAGCAAAAGGCUCCAGCUGGAGGGAUGGGUUGUGGGGCAACCUGGUUCCUGCUAACUGCCAGAUUGAAUGUGUGGGCUAGAAUGCCUGCACAUUUAGUUAAACUGG | 0.25
UCCCUUACCUGCCUACCACUAGUGUCACGCAUAGUGUCACAGUGCUUCUGAUACACUCUCAUCUUGAUCAUAUUUUAAAUCAAGCGUUUUCCUGUAGCUGUCAAGUGGUC | 0.368
AAUUCAAAUUAACUUCCUUUGAGUCUUUGUUAAAAGAGAAAAUAAAAAAAUCUCAAGCAAACUUGGAGUGGCAGUCCAGGGCAUGUCGCAGGAGCAGGAGUGGCUCCAAG | 1.48
AAACUUUGUAUUAAUGUGUUAAGUGCAGGAGACAUUGGUAUUCUGGGCACCUUCCUAAUAUGCUUUACAAUCUGCACUUUAACUGACUUAAGUGGCAUUAAACAUUUGAG | 0.407
GUCCACUUUGGUCUGUAAGUAGGAUGCUUACGAGAAAUCAGUGAAGGUAAGCAGGGCUGCCACUGUGGCCACGUAACCCUUCAGGAACCAGUGCUGAAGAAUAAUGAGUG | 0.425
UCAGUGUCUGGGGCUCUGGUAGAUGUGUUGAGGGCAAAGUAGAGGACAAGCUGUCUUUCCCAGUCAGCCAGGGAGCUCCCCGCCAGGCCACGCCCCAGCCACUUUGCUCC | 0.614
CCUGCCUCUCUGCCAUGAGGGCUUUGGAUCAGAUUCCUCUUCUCGCCAGGAUGAGGACACGCACUGCCCUCCAUAGACACAGAUGAAGGGGUGGGGGUCAUUCAGCUCGA | 0.284
GAAGGCCCAGCCCUUGACUCUGAGACACAUUUGAAUUUUUUCUUUCCCAUCAAAUGGCAUUAACAAGAUUGGGCAAAGAUGAGUCCCUCAAAUUUCUGUGUUUUUUGUUU | 0.522
UGUAGUUUUACUUUCCUAAGGAAUUACCAAGAAUAUCCUUUAAAAUUUAAAAGGAUGGCAAGUUGCAUCAGAAAGCUUUAUUUUGAGAUGUAAAAAGAUUCCCAAACGUG | 0.374
GCCCUGUGCCCCUCUGUCCGCCUCUUCACCGCUGGCAGAGGGCAGGCUGCAUGCAGUGGCGGCUGCUGGGCCCUGCCCAGCCCCAGGACUCUGCGCGAUAUCAAUACUGG | 1.28
